{"data": "Results collected from several papers", "note": "A part holds a random share of what one study measured.", "sequence of UniProt O75582 (whole entry, looked up)": "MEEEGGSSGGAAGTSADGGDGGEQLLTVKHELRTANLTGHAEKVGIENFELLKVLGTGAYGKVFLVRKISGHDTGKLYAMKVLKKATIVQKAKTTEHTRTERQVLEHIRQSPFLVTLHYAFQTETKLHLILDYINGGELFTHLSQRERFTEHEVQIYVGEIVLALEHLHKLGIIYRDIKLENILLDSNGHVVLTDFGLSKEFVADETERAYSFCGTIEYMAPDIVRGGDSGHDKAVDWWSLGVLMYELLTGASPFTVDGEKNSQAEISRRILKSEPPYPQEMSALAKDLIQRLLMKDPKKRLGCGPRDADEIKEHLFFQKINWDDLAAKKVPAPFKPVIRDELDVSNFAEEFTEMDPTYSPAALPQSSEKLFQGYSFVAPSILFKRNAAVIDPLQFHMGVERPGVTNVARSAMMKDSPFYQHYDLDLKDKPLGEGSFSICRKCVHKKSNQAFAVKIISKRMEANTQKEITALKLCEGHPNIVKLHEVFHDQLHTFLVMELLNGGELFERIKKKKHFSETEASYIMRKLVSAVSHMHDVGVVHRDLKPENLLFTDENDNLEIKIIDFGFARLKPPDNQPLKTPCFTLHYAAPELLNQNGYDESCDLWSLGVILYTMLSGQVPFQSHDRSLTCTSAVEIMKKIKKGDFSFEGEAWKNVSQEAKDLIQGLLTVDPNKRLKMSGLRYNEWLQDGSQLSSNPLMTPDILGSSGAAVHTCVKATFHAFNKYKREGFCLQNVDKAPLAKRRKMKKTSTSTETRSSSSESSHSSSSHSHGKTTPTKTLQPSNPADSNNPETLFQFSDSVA", "sequence of UniProt P42336 (whole entry, unmodified, looked up)": "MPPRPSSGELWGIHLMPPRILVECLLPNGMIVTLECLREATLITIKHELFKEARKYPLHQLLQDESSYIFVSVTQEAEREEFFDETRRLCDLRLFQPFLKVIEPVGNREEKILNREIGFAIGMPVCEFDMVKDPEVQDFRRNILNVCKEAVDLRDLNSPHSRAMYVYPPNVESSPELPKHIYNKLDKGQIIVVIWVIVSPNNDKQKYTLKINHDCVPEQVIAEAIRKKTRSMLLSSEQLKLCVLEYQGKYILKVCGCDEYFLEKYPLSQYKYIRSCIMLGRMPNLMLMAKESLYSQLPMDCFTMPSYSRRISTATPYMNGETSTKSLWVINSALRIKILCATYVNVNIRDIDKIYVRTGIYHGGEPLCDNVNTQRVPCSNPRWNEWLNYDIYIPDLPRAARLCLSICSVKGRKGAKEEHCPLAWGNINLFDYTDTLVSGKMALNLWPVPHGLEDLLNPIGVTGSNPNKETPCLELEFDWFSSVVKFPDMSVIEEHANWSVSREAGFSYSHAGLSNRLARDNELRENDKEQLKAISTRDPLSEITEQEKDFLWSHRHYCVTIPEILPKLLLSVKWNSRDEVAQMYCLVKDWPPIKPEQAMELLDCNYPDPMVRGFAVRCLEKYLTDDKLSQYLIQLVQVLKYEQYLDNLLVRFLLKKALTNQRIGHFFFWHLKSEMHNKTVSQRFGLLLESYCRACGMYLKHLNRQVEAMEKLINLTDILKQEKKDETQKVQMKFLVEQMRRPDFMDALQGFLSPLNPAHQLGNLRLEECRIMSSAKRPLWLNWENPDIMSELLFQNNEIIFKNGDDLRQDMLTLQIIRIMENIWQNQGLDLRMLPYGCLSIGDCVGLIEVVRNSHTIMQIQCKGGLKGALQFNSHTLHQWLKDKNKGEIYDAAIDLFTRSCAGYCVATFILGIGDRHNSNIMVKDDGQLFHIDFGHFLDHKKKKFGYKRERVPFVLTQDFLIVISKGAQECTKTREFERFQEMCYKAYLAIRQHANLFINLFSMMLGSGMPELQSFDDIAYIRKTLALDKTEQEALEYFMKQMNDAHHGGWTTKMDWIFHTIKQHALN", "sequence of UniProt Q9HCP0 (whole entry, looked up)": "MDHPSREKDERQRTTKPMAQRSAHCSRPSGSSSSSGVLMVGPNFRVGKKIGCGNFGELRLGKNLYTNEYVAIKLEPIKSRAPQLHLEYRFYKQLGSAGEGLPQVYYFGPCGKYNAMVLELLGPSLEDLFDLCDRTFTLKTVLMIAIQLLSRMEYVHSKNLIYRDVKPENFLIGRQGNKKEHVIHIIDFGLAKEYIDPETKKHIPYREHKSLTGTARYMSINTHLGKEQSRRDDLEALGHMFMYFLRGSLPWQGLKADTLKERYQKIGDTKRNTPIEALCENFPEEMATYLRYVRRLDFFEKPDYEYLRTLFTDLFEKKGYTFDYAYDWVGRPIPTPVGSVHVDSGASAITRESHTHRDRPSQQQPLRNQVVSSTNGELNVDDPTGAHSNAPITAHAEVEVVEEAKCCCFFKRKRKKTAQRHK", "sequence of UniProt P27361 (whole entry, looked up)": "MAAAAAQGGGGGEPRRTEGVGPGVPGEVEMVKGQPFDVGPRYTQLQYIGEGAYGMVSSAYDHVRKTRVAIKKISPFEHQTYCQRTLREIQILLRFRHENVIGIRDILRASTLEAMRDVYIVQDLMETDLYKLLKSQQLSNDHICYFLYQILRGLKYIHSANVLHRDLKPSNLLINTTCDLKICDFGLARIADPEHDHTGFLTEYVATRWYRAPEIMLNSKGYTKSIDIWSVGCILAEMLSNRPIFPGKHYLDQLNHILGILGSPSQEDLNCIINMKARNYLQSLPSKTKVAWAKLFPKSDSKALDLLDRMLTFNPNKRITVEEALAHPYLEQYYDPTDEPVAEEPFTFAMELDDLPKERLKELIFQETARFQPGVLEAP"}
{"data": "Study 1", "host": "human", "matrix": "microsomes or S9", "concentration": "2 µM", "time": "0.5 h"}
{"SMILES": "COc1cc(OC)c(C(=O)Nc2sc(C(C)C)cc2C(=O)OC(C)C)cc1OC", "remaining compound [%]": 83.1}
{"SMILES": "CCCNS(=O)(=O)c1ccc(CCC(=O)N2CCC(C(=O)OCC)CC2)cc1", "remaining compound [%]": 6.38}
{"SMILES": "CCn1cc(C(=O)NCCNC(=O)c2cn(CC)nc2C)c(C)n1", "remaining compound [%]": 96.9}
{"SMILES": "Cc1ccccc1-c1nc2ccccc2cc1Cn1nc(N2CCC(O)CC2)c2c(N)ncnc21", "remaining compound [%]": 54.3}
{"SMILES": "CN1C(=O)c2[nH]nc(-c3ccccc3)c2C1c1ccco1 (stereo not shown)", "remaining compound [%]": 61.7}
{"SMILES": "CCOc1cccc2c1OC1(CCN(CC)CC1)N1N=C(c3ccccc3)CC21 (stereo not shown)", "remaining compound [%]": 69.6}
{"SMILES": "COc1ccc(/C=C/c2nc(-c3cccnc3)no2)cc1OC", "remaining compound [%]": 42.6}
{"SMILES": "O=S(=O)(NCC(c1ccco1)S(=O)(=O)c1cccs1)c1ccc2c(c1)CCCC2 (stereo not shown)", "remaining compound [%]": 1.92}
{"data": "Study 2", "target": "STE20-like serine/threonine-protein kinase (SLK, Homo sapiens, UniProt Q9H2G2)", "effect on": "enzyme activity", "action": "inhibitor", "concentration": "0.5 µM", "baseline": "control", "sequence of UniProt Q9H2G2 (whole entry, looked up)": "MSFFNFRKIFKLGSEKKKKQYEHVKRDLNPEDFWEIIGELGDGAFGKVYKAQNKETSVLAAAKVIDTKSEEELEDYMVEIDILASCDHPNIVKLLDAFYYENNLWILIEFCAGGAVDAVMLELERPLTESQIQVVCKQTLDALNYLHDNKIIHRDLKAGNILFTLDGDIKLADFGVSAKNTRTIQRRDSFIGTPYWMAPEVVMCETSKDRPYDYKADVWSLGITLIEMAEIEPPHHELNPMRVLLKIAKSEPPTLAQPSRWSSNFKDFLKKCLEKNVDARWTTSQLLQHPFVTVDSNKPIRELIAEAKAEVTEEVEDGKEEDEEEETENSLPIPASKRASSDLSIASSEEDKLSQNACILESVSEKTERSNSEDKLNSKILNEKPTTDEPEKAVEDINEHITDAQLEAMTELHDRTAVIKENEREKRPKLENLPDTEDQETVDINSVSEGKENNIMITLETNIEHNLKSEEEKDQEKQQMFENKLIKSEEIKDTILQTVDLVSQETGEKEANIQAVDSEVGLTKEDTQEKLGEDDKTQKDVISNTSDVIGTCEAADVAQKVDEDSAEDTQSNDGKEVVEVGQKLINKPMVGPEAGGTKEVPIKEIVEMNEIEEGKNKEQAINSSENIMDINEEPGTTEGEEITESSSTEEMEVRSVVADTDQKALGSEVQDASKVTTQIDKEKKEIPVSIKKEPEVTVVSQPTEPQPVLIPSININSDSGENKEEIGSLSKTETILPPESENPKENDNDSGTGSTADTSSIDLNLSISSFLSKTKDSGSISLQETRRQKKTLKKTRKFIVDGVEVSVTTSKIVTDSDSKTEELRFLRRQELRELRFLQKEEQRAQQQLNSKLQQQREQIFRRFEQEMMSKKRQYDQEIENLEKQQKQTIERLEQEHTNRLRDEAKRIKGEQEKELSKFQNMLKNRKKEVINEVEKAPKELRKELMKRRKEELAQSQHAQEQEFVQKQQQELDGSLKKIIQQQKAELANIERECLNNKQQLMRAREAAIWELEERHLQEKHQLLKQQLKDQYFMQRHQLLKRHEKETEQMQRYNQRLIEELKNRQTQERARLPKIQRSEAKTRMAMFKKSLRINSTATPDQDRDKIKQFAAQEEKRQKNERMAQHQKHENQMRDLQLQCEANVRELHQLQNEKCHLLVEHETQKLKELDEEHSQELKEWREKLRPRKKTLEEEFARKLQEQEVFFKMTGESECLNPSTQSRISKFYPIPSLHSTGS"}
{"SMILES": "O=C(O)c1ccc2c3c1cccc3c(=O)n1c3ccccc3nc21", "remaining activity": "94.1%"}
{"SMILES": "COc1cc2ncnc(Nc3ccc(F)c(Cl)c3)c2cc1OCCCN1CCOCC1", "remaining activity": "83.7%"}
{"SMILES": "Cc1nc(-c2ccccc2)c(-c2ccncc2)o1", "remaining activity": "101%"}
{"SMILES": "O=C1NC(=O)C(c2cn(CCCO)c3ncccc23)=C1c1cnccn1", "remaining activity": "106%"}
{"SMILES": "O=c1c2ccccc2[nH]c(=S)n1CCN1CCC(=C(c2ccc(F)cc2)c2ccc(F)cc2)CC1", "remaining activity": "103%"}
{"SMILES": "C#Cc1cccc(Nc2ncnc3cc(OCCOC)c(OCCOC)cc23)c1", "remaining activity": "42%"}
{"SMILES": "Oc1ccc(-c2nc(-c3ccncc3)c(-c3ccc(F)cc3)[nH]2)cc1", "remaining activity": "91.2%"}
{"SMILES": "Cn1sc(=O)n(Cc2ccccc2)c1=O", "remaining activity": "84.7%"}
{"SMILES": "N#CC(C#N)=C(N)/C(C#N)=C/c1ccc(O)cc1", "remaining activity": "102%"}
{"SMILES": "O=S(=O)(c1cccc2cnccc12)N1CCCNCC1", "remaining activity": "95.8%"}
{"SMILES": "CCOC(=O)c1c(C)[nH]c(/C=C2\\C(=O)Nc3ccccc32)c1C", "remaining activity": "89.8%"}
{"SMILES": "COc1ccc(OC)c2c(=S)c3ccccc3[nH]c12", "remaining activity": "80.2%"}
{"SMILES": "COc1ccc(CNC(=O)Nc2ncc([N+](=O)[O-])s2)cc1", "remaining activity": "88.9%"}
{"SMILES": "NCCNc1ncc(C(N)=O)c(Nc2cccc(C(F)(F)F)c2)n1", "remaining activity": "103%"}
{"data": "Study 3", "SMILES": "O=C1CCc2cc(Nc3cc(OC4CCOCC4)c([N+](=O)[O-])cc3Cl)ccc2N1", "effect on": "cell-free assay", "technique": "competition with immobilised ligand", "concentration": "1 µM"}
{"target": "Ribosomal protein S6 kinase alpha-5, C-terminal kinase domain (RPS6KA5, Homo sapiens, UniProt O75582)", "remaining binding [%]": 100}
{"target": "FLT3 (Homo sapiens, UniProt P36888, N841I)", "remaining binding [%]": 100}
{"target": "MAPK3 (Homo sapiens, UniProt P27361)", "remaining binding [%]": 78}
{"target": "PIK3CA (Homo sapiens, UniProt P42336, E545K)", "remaining binding [%]": 79}
{"target": "CSNK1G1 (Homo sapiens, UniProt Q9HCP0)", "remaining binding [%]": 97}
{"data": "Study 4", "cell line": "HaCaT", "concentration": "100 µM", "time": "36 h"}
{"Compound": "Cc1cccc(C)c1OCC(C)N (stereo not shown)", "viability": "53.8%"}
{"Compound": "OC[C@H]1O[C@@H](c2ccc(F)c(Cc3cc4ccccc4s3)c2)[C@H](O)[C@@H](O)[C@@H]1O", "viability": "70.2%"}
{"Compound": "CC1(C)O[C@H]2CC(=O)OC[C@]23[C@H]2CC[C@@]4(C)[C@H](c5ccoc5)OC(=O)[C@H]5O[C@]54[C@]2(C)C(=O)C[C@@H]13", "viability": "64.7%"}
{"Compound": "CC[C@@H]([C@H](C)O)n1ncn(-c2ccc(N3CCN(c4ccc(OC[C@@H]5CO[C@@](Cn6cncn6)(c6ccc(F)cc6F)C5)cc4)CC3)cc2)c1=O", "viability": "37%"}
{"Compound": "CN1C(C(=O)Nc2ccccn2)=C(O)c2sc(Cl)cc2S1(=O)=O", "viability": "49.3%"}
{"Compound": "CN1C(=O)OC(C)(C)C1=O", "viability": "96.1%"}
{"Compound": "C[C@]12CCC(=O)C=C1[C@@H]1C[C@@H]1[C@H]1[C@@H]3[C@@H]4C[C@@H]4[C@@]4(CCC(=O)O4)[C@@]3(C)CC[C@@H]12", "viability": "52.2%"}
{"note": "A few entries again (study 4):"}
{"Compound": "CC[C@@H]([C@H](C)O)n1ncn(-c2ccc(N3CCN(c4ccc(OC[C@@H]5CO[C@@](Cn6cncn6)(c6ccc(F)cc6F)C5)cc4)CC3)cc2)c1=O", "viability": "37%"}
{"Compound": "CN1C(C(=O)Nc2ccccn2)=C(O)c2sc(Cl)cc2S1(=O)=O", "viability": "49.3%"}
{"Compound": "CN1C(=O)OC(C)(C)C1=O", "viability": "96.1%"}
{"Compound": "C[C@]12CCC(=O)C=C1[C@@H]1C[C@@H]1[C@H]1[C@@H]3[C@@H]4C[C@@H]4[C@@]4(CCC(=O)O4)[C@@]3(C)CC[C@@H]12", "viability": "52.2%"}
